{"data": "Measured values collected from several papers", "note": "Numbered parts are unrelated; each lists some results of a single study. “And” joins repeats or separate records; there may be more than shown."}
{"data": "Study 1", "target": "panel of 300 human kinases", "concentration": "0.5 µM", "reading": "higher = more selective"}
{"Compound": "COC[C@H]1OC(=O)c2coc3c2[C@@]1(C)C1=C(C3=O)[C@@H]2CCC(=O)[C@@]2(C)C[C@H]1OC(C)=O", "Gini score": 0.59}
{"Compound": "CN[C@@H]1C[C@H]2O[C@@](C)([C@@H]1OC)n1c3ccccc3c3c4c(c5c6ccccc6n2c5c31)C(=O)NC4", "Gini score": 0.2}
{"Compound": "O=c1[nH]c2ccccc2n1C1CCN(Cc2ccc(-c3[nH]c4cc5ncnc5cc4nc3-c3ccccc3)cc2)CC1", "Gini score": 0.75}
{"Compound": "CC(C)(C)c1cc(C=C(C#N)C#N)cc(Br)c1O", "Gini score": 0.71}
{"Compound": "O=C1NC(=O)c2c1c1c3ccccc3n3c1c1c2c2ccccc2n1[C@H]1CC[C@@H]3O1", "Gini score": 0.36}
{"data": "Study 2", "target": "Calcium/calmodulin-dependent protein kinase type II subunit alpha (CAMK2A, Homo sapiens, UniProt Q9UQM7)", "observed": "enzyme activity", "action": "inhibitor", "concentration": "10 µM", "sequence of UniProt Q9UQM7 (whole entry, looked up)": "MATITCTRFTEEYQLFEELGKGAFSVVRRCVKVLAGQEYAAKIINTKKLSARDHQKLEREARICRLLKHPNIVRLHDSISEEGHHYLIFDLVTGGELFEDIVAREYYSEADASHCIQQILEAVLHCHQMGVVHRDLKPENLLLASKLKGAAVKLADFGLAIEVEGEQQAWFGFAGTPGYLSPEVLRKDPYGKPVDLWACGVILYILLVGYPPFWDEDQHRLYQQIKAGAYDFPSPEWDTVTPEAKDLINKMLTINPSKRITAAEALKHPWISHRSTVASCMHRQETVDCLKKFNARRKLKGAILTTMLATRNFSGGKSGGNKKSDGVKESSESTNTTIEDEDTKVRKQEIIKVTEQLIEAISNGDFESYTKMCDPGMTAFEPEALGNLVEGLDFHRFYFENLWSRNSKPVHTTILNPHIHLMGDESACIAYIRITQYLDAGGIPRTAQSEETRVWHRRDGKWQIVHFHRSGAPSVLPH"}
{"Structure (SMILES)": "C=CCC(C(=O)NC(N)=O)C(C)C (stereo not shown)", "inhibition [%]": -5}
{"Structure (SMILES)": "CN(C)CCc1ccc(O)cc1", "inhibition [%]": 2}
{"Structure (SMILES)": "COc1cc(-c2cc(=O)c3c(O)cc(O)cc3o2)cc(OC)c1O", "inhibition [%]": -5}
{"Structure (SMILES)": "O=C(O)CCCCCCCCCCCO", "inhibition [%]": 4}
{"Structure (SMILES)": "Oc1ccc2ccc3cccc4ccc1c2c34", "inhibition [%]": 11}
{"data": "Study 3", "cell line": "A-375", "concentration": "100 µM", "time": "18 h"}
{"SMILES": "NC(=O)CN1CC(O)CC1=O (stereo not shown)", "viability [%]": 77.4}
{"SMILES": "C[C@H]1CC(=O)C[C@@H]2CC[C@H]3[C@@H]4CC[C@H](O)[C@@]4(C)CC[C@@H]3[C@]21C", "viability [%]": 39.5}
{"SMILES": "CCC1(c2ccc(N)cc2)CCC(=O)NC1=O (stereo not shown)", "viability [%]": 81.5}
{"SMILES": "COc1ccc(C(=O)N2CCCC2=O)cc1", "viability [%]": 94.2}
{"SMILES": "CC(C)(C)c1cc(C(C)(C)C)c(NC(=O)c2c[nH]c3ccccc3c2=O)cc1O", "viability [%]": 8.6}
{"SMILES": "CN1CCc2cc3c(cc2[C@H]1[C@@H]1OC(=O)c2c1ccc1c2OCO1)OCO3", "viability [%]": 106}
{"SMILES": "CC(C)(C)NCC(O)c1ccccc1Cl (stereo not shown)", "viability [%]": 88.1}
{"SMILES": "CC(C)C(Br)C(=O)NC(N)=O (stereo not shown)", "viability [%]": 103}
{"SMILES": "COC[C@@H](NC(C)=O)C(=O)NCc1ccccc1", "viability [%]": 86.5}
{"SMILES": "O=c1[nH]c2ccccc2n1C1CCN(CCCC(c2ccc(F)cc2)c2ccc(F)cc2)CC1", "viability [%]": 9.58}
{"data": "Study 4", "cell line": "mouse MPNST tumor cells", "method": "high-content nuclear imaging", "item": "cell number", "concentration": "10 µM", "time": "12 h", "notes": "mean of 2 replicates", "baseline": "plate mean", "reading": "higher = more cells"}
{"Structure (SMILES)": "NC(=O)C[S@@+]([O-])C(c1ccccc1)c1ccccc1", "nuclei count": "1.44 z-score"}
{"Structure (SMILES)": "O=C(NCCN1CCC2(CC1)C(=O)NCN2c1cccc(F)c1)c1ccc(F)c(F)c1", "nuclei count": "3.28 z-score"}
{"Structure (SMILES)": "C=C1C[C@@H]2[C@H](CC[C@]3(C)C(=O)CC[C@@H]23)[C@@]2(C)C=CC(=O)C=C12", "nuclei count": "-1.51 z-score and -1.78 z-score"}
{"Structure (SMILES)": "Cc1cccc([C@H](C)c2c[nH]cn2)c1C", "nuclei count": "0.335 z-score and -0.241 z-score"}
{"Structure (SMILES)": "CCc1c(C(=O)OC)ncc2[nH]c3cc(OC)c(OC)cc3c12", "nuclei count": "1.7 z-score"}
{"Structure (SMILES)": "Cc1cccc(NC(=O)N[C@@H]2N=C(c3ccccc3)c3ccccc3N(C)C2=O)c1", "nuclei count": "2.8 z-score"}
{"Structure (SMILES)": "CCN(C(C)=O)c1cccc(-c2ccnc3c(C#N)cnn23)c1", "nuclei count": "-0.325 z-score"}
{"Structure (SMILES)": "CCN[C@@H](C)Cc1cccc(C(F)(F)F)c1", "nuclei count": "2.51 z-score"}
{"note": "Repeated from above (study 4):"}
{"Structure (SMILES)": "Cc1cccc([C@H](C)c2c[nH]cn2)c1C", "nuclei count": "0.335 z-score and -0.241 z-score"}
{"Structure (SMILES)": "CCc1c(C(=O)OC)ncc2[nH]c3cc(OC)c(OC)cc3c12", "nuclei count": "1.7 z-score"}
{"Structure (SMILES)": "Cc1cccc(NC(=O)N[C@@H]2N=C(c3ccccc3)c3ccccc3N(C)C2=O)c1", "nuclei count": "2.8 z-score"}
